Experimental data gathered from unrelated publications.
Compare with care: the assays were run in different laboratories.
Technique: steady-state kinetics
B1: sacB S173A/S422A (Priestia megaterium, UniProt D5DC07); chain KGNDSKDFNNSYGISHITRDNMVKIPQQQNSDQFKVPAFDESTIKNIASAKGKNASGNTIDLDVWDSWPLQNADGTVATYHGYQIVFALAGDPKDSNDTSVYLFYKKAGDKSIDSWKNAGRVFKDSDKFVPNDPHLKNQTQEWAGSGTLTKDGKVRLFYTDYSGKQYGKQTLTTAQVNMSQPNDNTLKVDGVEDYKSIFDGDGKIYQTVQQFIDEGGYDTGDNHTLRDPHYIEDNGHKYLVFEANTGTEDGYQGEDSLYNRAYYGGNNPFFQSEKKKLLEGSNKEKASLANGALGIIELNDDYTLKKVMKPLITSNTVTDEIERANIFKKDGKWYLFTDSRGSKMTIDGIGQDDVYMLGYVSNTLTGKYKPLNDTGLVLHMDLDPNDKTFTYAHFAVPQTKGDNVVITSYMTNRGFYEDNHSTFAPSFLVNIDGSKTSVVKDRVLEQGQLTVDED
B2: enzyme P89Y (Thermobifida fusca, UniProt Q47RA9); chain MIMIMASKSSPHDLPDVSGLSIAVLGGTGDQGRGLARRFAMAGHEVILGSRSAERAQAVAAELGEGLPVRGMDNAGAAEAGDVVIVAVYWDGHRALLESLKDVLAGKIVVDCVNPLGFDKRGAYALPVEEGSAAEQAAAILPDSRVVAAFHHVSAVLLLDPEVEKVDLDVLVLGDDREATDVVRALAARIPGVRGVYGGRLRNAHQVEAFTANLISINRRYKAHAGIRITDI
B3: protein (Planktothrix agardhii, UniProt F5B6Z0); chain MIVNVIQKDRLKEQKLQFIRNHQQAFDVEPIYPLPLFEDFVTSIEGDCSLEASCKIESDKLIASRFLLFFEDKTQEWQKYLHQSLTFFGLVENRVGVKINYSLLQQFLGSSFDFSKVTVLSAGIDLRNNLAESSLKMHIRIKDYPEKLDKAFALSDGAADGNYLKDFVNLIGFDFYFNGKSEIEIYAEVQEDDFFKPEINNLVWQHFPKTALQPLKASSLFFTGLSKANNNPVLYYHLKNRQDLTNYFKLNDTAQRVHSFYQHQDILPYMWVGTAQKELEKTRIENIRLYYYKSFKMESN
B4: moaA (Staphylococcus aureus, UniProt P69848); chain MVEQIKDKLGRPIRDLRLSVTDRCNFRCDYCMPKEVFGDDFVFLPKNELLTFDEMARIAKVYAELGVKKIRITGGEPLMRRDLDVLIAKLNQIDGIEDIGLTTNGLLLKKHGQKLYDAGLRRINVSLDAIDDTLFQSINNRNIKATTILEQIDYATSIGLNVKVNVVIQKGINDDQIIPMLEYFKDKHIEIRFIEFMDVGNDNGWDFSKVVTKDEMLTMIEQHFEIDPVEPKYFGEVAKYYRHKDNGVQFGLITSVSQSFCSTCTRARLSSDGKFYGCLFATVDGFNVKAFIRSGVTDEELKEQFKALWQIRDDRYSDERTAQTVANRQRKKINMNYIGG
B5: protein (Danio rerio, UniProt A0EXC5); chain MTESELYSVHKGVFVPTHLHPAESLKYYEDFIFRPDDILIVTYPKSGTIWMQEIVPLVVSEGDLTLVLTVPNWDRVPWLEEHRAILLSLEQRASPRIFATHFHHQMMNPSYFKIEPRVLYVMRNPKDVFISSFHYYGMASFLVNPGTQDEFMEKFLNGNIMFGSWFDHVKGWLNAAEQEHILYISYEEMINDLRASVEKIATFLGKSLSSEVVEKIADHCVFKNMKQNKMSNLSLVPEEFMDQKKSEFLRKGIAGDWKNHFSAAQEERFNAVYDDKMKDVKFKFPWD
B6: protein Y93D (Thermus thermophilus, UniProt Q5SKR5); chain MSAPKPFVIGIAGGTASGKTTLAQALARTLGERVALLPMDHYYKDLGHLPLEERLRVNYDHPDAFDLALYLEHAQALLRGLPVEMPVYDFRADTRSPRRTPVRPAPVVILEGILVLYPKELRDLMDLKVFVDADADERFIRRLKRDVLERGRSLEGVVAQYLEQVKPMHLHFVEPTKRYADVIVPRGGQNPVALEMLAAKALARLARMGAA
B7: Saccharopine reductase C154S (Saccharomyces cerevisiae, UniProt P38999); chain MGKNVLLLGSGFVAQPVIDTLAANDDINVTVACRTLANAQALAKPSGSKAISLDVTDDSALDKVLADNDVVISLIPYTFHPNVVKSAIRTKTDVVTSSYISPALRELEPEIVKAGITVMNEIGLDPGIDHLYAVKTIDEVHRAGGKLKSFLSYSGGLPAPEDSDNPLGYKFSWSSRGVLLALRNSAKYWKDGKIETVSSEDLMATAKPYFIYPGYAFVCYPNRDSTLFKDLYHIPEAETVIRGTLRYQGFPEFVKALVDMGMLKDDANEIFSKPIAWNEALKQYLGAKSTSKEDLIASIDSKATWKDDEDRERILSGFAWLGLFSDAKITPRGNALDTLCARLEELMQYEDNERDMVVLQHKFGIEWADGTTETRTSTLVDYGKVGGYSSMAATVGYPVAIATKFVLDGTIKGPGLLAPYSPEINDPIMKELKDKYGIYLKEKTVA
B8: FMO3 N61S (Homo sapiens, UniProt P31513); chain GKKVAIIGAGVSGLASIRSCLEEGLEPTCFEKSNDIGGLWKFSDHAEEGRASIYKSVFSSSSKEMMCFPDFPFPDDFPNFMHNSKIQEYIIAFAKEKNLLKYIQFKTFVSSVNKHPDFATTGQWDVTTERDGKKESAVFDAVMVCSGHHVYPNLPKESFPGLNHFKGKCFHSRDYKEPGVFNGKRVLVVGLGNSGCDIATELSRTAEQVMISSRSGSWVMSRVWDNGYPWDMLLVTRFGTFLKNNLPTAISDWLYVKQMNARFKHENYGLMPLNGVLRKEPVFNDELPASILCGIVSVKPNVKEFTETSAIFEDGTIFEGIDCVIFATGYSFAYPFLDESIIKSRNNEIILFKGVFPPLLEKSTIAVIGFVQSLGAAIPTVDLQSRWAAQVIKGTCTLPSMEDMMNDINEKMEKKRKWFGKSETIQTDYIVYMDELSSFIGAKPNIPWLFLTDPKLAMEVYFGPCSPYQFRLVGPGQWPGARNAILTQWDRSLKPMQTRVVGRLQKPCFFFHWLKLFAIPILLIAVFLVLT
B9: Rtr1 residues 1-178 (Saccharomyces cerevisiae, UniProt P40084); chain MATIEDIKETALIPFQKHRQLSMHEAEVITLEIIGLLCDSECKDEKTLKYLGRFLTPDMYQDLVDERNLNKRCGYPLCGKSPERIRDPFSMNDTTKKFLLENNPYAYLSHYCSKFHFRCSQFYQVQLSDEALFARTGVHLFEDPEQDKHDIDFKVTLFEELLREKASEEDIKSLISGL
Sequence of UniProt Q9UYB2 (whole entry, looked up): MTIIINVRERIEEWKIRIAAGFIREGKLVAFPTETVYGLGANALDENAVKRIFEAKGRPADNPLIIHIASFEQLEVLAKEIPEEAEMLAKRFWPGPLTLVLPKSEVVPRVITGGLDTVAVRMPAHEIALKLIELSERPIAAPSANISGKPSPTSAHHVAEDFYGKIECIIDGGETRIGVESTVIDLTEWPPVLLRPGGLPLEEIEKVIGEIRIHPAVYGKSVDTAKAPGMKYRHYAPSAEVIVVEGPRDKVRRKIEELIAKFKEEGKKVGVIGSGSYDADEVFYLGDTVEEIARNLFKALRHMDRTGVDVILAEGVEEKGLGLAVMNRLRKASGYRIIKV
Sequence of UniProt P49419 (whole entry, looked up): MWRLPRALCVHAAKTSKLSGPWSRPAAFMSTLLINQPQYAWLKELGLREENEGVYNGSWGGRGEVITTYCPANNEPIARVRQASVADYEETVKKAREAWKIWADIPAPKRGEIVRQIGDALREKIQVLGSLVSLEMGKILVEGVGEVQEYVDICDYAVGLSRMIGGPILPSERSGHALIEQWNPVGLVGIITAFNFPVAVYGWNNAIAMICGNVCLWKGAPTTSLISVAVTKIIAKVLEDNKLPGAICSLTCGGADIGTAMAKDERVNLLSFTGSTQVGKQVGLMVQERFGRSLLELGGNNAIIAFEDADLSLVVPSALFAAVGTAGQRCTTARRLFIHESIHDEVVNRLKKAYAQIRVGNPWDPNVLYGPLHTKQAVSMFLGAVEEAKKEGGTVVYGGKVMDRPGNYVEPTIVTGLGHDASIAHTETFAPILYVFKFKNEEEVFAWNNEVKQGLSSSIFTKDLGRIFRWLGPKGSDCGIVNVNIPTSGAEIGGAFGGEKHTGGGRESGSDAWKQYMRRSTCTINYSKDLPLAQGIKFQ

protein (Scutellaria baicalensis, UniProt A0A146AUI9) — Km (O=C1C[C@@H](c2ccccc2)Oc2cc(O)cc(O)c21; pH 7.9, 28 °C, apparent, not purified, together with: NADPH): 0.24 µM
B1 (sacB S173A/S422A) — Km (OC[C@H]1O[C@@](CO)(O[C@H]2O[C@H](CO)[C@@H](O)[C@H](O)[C@H]2O)[C@@H](O)[C@@H]1O; pH 6.6): 7900 µM
B2 (enzyme P89Y) — Km (NC(=O)c1ccc[n+](CCCO)c1; pH 8, 25 °C): 35000 µM
B3 (protein) — Km (CC(C)=CCOP(=O)(O)OP(=O)(O)O; together with: tri-Tyr peptide acceptor): 270 µM
B4 (moaA) — Km (Nc1nc2c(ncn2[C@@H]2O[C@H](COP(=O)(O)OP(=O)(O)OP(=O)(O)O)[C@@H](O)[C@H]2O)c(=O)[nH]1; pH 7.6, 25 °C, together with: SAM, dithionite, MgCl2 1 mM): 1.4 µM
B5 (protein) — Km (C[C@H](CCCC(CO)CO)[C@H]1CC[C@H]2[C@@H]3[C@H](O)C[C@@H]4C[C@H](O)CC[C@]4(C)[C@H]3C[C@H](O)[C@]12C; pH 7, 28 °C, substrate inhibition, together with: PAPS 14 µM): 7.15 µM
B6 (protein Y93D) — Km (Nc1ccn([C@@H]2O[C@H](CO)[C@@H](O)[C@H]2O)c(=O)n1; pH 7.2, 25 °C, KCl 100 mM, together with: ATP 100–200 µM): 236 µM
ALDH7A1 (Homo sapiens, UniProt P49419) — Km (N[C@@H](CCCC=O)C(=O)O; pH 8, 26 °C, together with: NAD+ 2.5 mM): 64 µM
Sua5 (Pyrococcus abyssi, UniProt Q9UYB2) — Km (C[C@@H](O)[C@H](N)C(=O)O; pH 8, 50 °C, KCl 35 mM, together with: ATP, Mg2+, Mn2+, L-threonine 3–150 µM): 11.5 µM
B7 (Saccharopine reductase C154S) — Km (N[C@@H](CCCCN[C@@H](CCC(=O)O)C(=O)O)C(=O)O; pH 9, 25 °C, together with: saccharopine): 18300 µM
B8 (FMO3 N61S) — Km (CN1CCC[C@H]1c1cccnc1; HEK293 microsomes; 37 °C, not purified, together with: NADPH regenerating system): 4700 µM
B9 (Rtr1 residues 1-178) — Km (Cc1cc(=O)oc2c(F)c(OP(=O)(O)O)c(F)cc12; pH 6, NaCl 150 mM, no metal added): 20.4 µM

Excerpt of the above:
protein (Scutellaria baicalensis, UniProt A0A146AUI9) — Km (O=C1C[C@@H](c2ccccc2)Oc2cc(O)cc(O)c21; pH 7.9, 28 °C, apparent, not purified, together with: NADPH): 0.24 µM
